Published values from different studies.
Parts stem from different laboratories: compare values within a part only. Changes are numbered by the printed parent chain.

Sample 1 — technique: RNA Bind-n-Seq; form: RNA; matrix: in vitro; concentration: not given; reference: input RNA pool; direction: higher = stronger binding; quantity: bound/input enrichment
Target: RING finger protein unkempt homolog, zinc fingers 1-6, GST-SBP tag (UNK, Homo sapiens, UniProt Q9C0B0, residues 30-357)
Setting: RNA with constant flanks, human-mouse chimeric sites, ends assumed
Target sequence (chain): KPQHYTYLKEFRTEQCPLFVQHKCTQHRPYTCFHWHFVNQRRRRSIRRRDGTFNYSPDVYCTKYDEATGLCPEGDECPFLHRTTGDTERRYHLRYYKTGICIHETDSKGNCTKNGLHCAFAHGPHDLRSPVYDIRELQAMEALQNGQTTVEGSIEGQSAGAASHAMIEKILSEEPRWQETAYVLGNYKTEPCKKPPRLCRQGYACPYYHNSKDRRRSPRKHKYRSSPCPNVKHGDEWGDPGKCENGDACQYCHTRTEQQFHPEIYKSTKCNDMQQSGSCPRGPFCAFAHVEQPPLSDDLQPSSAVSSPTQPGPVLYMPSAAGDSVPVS
Strand = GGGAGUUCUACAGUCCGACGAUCAAAGCCCAAGUAUUUUGAAAAAACUCGAACAGAUUUGUCAAGGGUAACCAGCUUGGAGUCUAGCAACUUGCCAAUGUGUUUACCAAUCUGGGGGCUUUGUUUUUCUUUCUUCUUUCAAAUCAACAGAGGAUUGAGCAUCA; result = 0.224 ratio
Strand = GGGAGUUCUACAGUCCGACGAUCUUUCUACUGCAGCAAACGAUGCUAAGAAUUAAGGAUCCUAAGAAGUCCCUGGAUUUUUAUACGAGGGUUCUUGGACUGACGCUAAUCCAGAAGCUUGACUUCCCUGCUAUGAAGUUCUCGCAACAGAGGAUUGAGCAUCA; result = 0.174 ratio
Strand = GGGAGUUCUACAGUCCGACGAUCCACGUGUCUGCAGUACUUGAUGUGGAUUACUCUCCCACUGGGAAGGAGUUUGUGUCUGCCAGCUUUGAUAAGUCUAUUAGAAUCUUUCCUGUGGACAAGAGCCGAAGCAGGGAAGUGUAUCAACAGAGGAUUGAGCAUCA; result = 0.188 ratio
Strand = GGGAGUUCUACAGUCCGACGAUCUUCAAAGAAAAGGGCAGCUGUGUCAUUUCAUAAGUAAAACUGCAUCCGGGAAAUUCUGUUCUUUUGUUUAAUUUUCCCCCAAAUGAAGCCAAAGUGUGUGUUGAAGAAGGAAGAAUGAAUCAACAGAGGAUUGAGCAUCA; result = 0.228 ratio
Strand = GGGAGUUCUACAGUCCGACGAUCGCUCUUGGGAAUGUAAUCAGCGCCUUGGGGGACAAGAGCAAGAGAGCCACACAUGUCCCUUACAGAGACUCUAAGCUAACAAGACUAUUGCAGGAUUCCCUUGGGGGUAACAGCCAAACCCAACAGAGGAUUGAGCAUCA; result = 0.157 ratio
Strand = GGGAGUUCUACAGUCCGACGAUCCACAGAGGAGACCUCCUGUUCCUCACAAAUUUCCGGGAGGACCCCAUCAGAGCUGGUGAAAUAGUUGUUUUUAAGGUUGAAGGAAGAGACAUUCCGAUAGUUCACAGAGUAAUCAAGGUUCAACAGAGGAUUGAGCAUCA; result = 5.37 ratio
Strand = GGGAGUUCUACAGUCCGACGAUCGCAGGAUCUUCUAAGUACCAGUGGGACAUUAUGAAAUCCCUUGGGCUCUCUGAUGACGACAUAGUGAAAUUUUCUGAAGCAGAGCACUGGCUUGAUUAUUUCCCGCCACUGGCCGUUCAGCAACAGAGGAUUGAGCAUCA; result = 0.164 ratio
Strand = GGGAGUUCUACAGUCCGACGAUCGGCCUGGGACCGUCCUGGGCUAGUACAAAUAGCGGCAGUGGAGGCUCGAGAGGAAAGUUUGUUAGUGGAGGCAGUGGAGAGGUCGUCCAUGUACGGUCCUUUACUCGAUAGAUGUGUUCUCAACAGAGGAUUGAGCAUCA; result = 0.579 ratio
Strand = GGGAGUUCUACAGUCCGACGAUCGGGACUGAUUCAUCCCAAGGACAGGCAACCCCAUUUGAUGCCUGGACUGAUGACAGUAUGGAAGGGCCUAGUCAAAAUGUUGAAGCUGAGUCAAUUCAAGAUAAUGCGAGUAUGGAAGAGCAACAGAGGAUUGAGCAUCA; result = 0.604 ratio
Strand = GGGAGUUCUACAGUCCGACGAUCCUGGCCUGGCCCUCCCCUCUAGUGACCUUUCGUAUAGUCACUGCUUCUGCAUCAGAUACUUUCAGCUGCAACUCCCUACUGGGUGGGGCACCUAUCUCAGGCAGAAGGUUUUGGUACCCUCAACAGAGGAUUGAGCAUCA; result = 0.21 ratio
Strand = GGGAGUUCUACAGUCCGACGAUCGUGCCCUUCUCGCUGCUCCUGCGGGGCAGCUGGGAACCAUUCCGGGACUGGUACCCUCCGCAUAGCCGCCUCUUCGAUCAAGCUUUCGGGGUGCCCCGGUUGCCCGAUGAGUGGUCGCAGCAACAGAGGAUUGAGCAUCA; result = 0.055 ratio

Sample 2 — technique: RNA Bind-n-Seq; form: RNA; matrix: in vitro; concentration: 365 nM; reference: no-protein control; direction: higher = stronger binding; quantity: RBNS enrichment (R)
Target: RNA binding protein fox-1 homolog 2, RRM domain, GST-SBP tag (RBFOX2, Homo sapiens, UniProt O43251-10, residues 100-194)
Setting: natural RNA segment, single round, ends assumed
Residues (chain): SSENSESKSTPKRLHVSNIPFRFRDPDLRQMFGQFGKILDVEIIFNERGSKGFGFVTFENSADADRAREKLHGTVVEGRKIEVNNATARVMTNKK
Strand = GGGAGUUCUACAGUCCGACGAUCGUGCCUGGUUUAUUUAACUAAUUAAUACCUCCUCUGUUGAUGAGCUAUUGAGAGUUGCAGUGUUUUACUUUUUAAUACAGUGACUGCACUUGGGACAGACUAUUUGUAGUUGGAAUUCUCGGGUGCCAA; result = 0.426
Strand = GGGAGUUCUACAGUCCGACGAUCAUGUGGAUGGCCUGGGGACUCCUGGGUUUUCUCCCUCCCGACUCCCUAAUAAACCCCGUGAACCUUGGAGCCAGCACAGACUGUACUUAUGUCUGGGCUGGGGGUGGGGGUGGAAUUCUCGGGUGCCAA; result = 0.389
Strand = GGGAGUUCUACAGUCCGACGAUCUGUGUGGGAGACUGUCAUUUGGGAAUUUGAUUUUUUUUUUUCUGUACGAAUUUAAAAAAAAAAGAAAAAAAAGAAACUUCAUUGAAUUACCUUGCAGUGGUGUUGACUCUUGGAAUUCUCGGGUGCCAA; result = 0.982
Strand = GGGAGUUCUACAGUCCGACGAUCUUUCAGAAGGCCUCGCUCCUGACCUAAUUUCUCAAAGCUCCGGUAGUUCUAGACCCCUCCAAUUUCUCAUCUGGUUGCAAGGCUUAUUUUUCUUUUGUACUUUCCUAUAGUGGAAUUCUCGGGUGCCAA; result = 0.765
Strand = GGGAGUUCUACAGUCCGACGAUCCGGACAGCCUAGCUGGGGGCUCCCCCAUAUUCCCAGGCCCAGAAGACAGACCCACAGCCCUGCCCUUGUCUCUGAGGCUGAAGACCCCCUGACUCCCAUGCUGUGCUUGCUGGAAUUCUCGGGUGCCAA; result = 2.8
Strand = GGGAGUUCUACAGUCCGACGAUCUCCAGGGCUUUUUCUACUUCAUCACAAGGAAUGUUUUGAAAGUGUCUGCUUUUUUUAUCCUUAAAAUUCACCUGUCAGGGAGGCAUUAAAAAUUUGGAAAUGUAUGCCAGUGGAAUUCUCGGGUGCCAA; result = 0.78
Strand = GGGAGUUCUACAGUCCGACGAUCAAUUAUAUUGAAAUGCUGCCCUAGAAGUACAAUAGGAAGGCUAAAUAAUAAUAACCUGUUUUCUGGUUGUUGUUGGGGCAUGAGCUUGUGUAUACACUGCUUGCAUAAACUGGAAUUCUCGGGUGCCAA; result = 0.538
Strand = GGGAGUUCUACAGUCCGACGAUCCCUUCUCACUGGUGUAUUUUGAAAACCACCACAGUCCGAUGUCCUGUGCCAUGUCUGUCAUUCCUGUUGAACAGACUCUUCCUGUCUGGUGACCACCUAUGCUUCAGUGCUGGAAUUCUCGGGUGCCAA; result = 0.429
Strand = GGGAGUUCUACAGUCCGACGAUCAUAACAACCUUUUACAUUGUGACUGUGUUUGCAUUGUCUAAUGACAGAUAAAUCCUUAACAUUUCUCUCCACCUUAGUACUUUAGACUAAUUGUGUUUGUCCGUCCAUGCUGGAAUUCUCGGGUGCCAA; result = 0.392
Strand = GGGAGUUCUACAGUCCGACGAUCGCGCCCGCCACUCGGGGCCCCUGCCGCGCAUCCUGCAGCCCGCUUAUGCGUAUGUGCACGGGGCCGCCCGCCUGGACCUGGAGAAGGGACCUACGGACGCCUGGAAGCUGUGGAAUUCUCGGGUGCCAA; result = 0.369
Strand = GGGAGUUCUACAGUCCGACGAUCUGCUCUUCCCCAAGGAACUGCUCCCACCUCAGCACGUGGAGGCCUCUCACGGUCCUCCUUCCUGGGACCUGAGCAGGUUUGGUGAAAGCCACCGUCCUCCGUGACACACGUGGAAUUCUCGGGUGCCAA; result = 0.299
Strand = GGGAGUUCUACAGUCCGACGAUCUGUGGACACCAAAAUGGCUUAACUGAGAUACAGUGAAAACAUGACAAAUAAACCAACUUUUUACAAGUGCCUCGUCAUCUUUGUAAACGGAGAGCAGAAAGCUUGUUGUGUGGAAUUCUCGGGUGCCAA; result = 0.249

Sample 3 — target: CCNE2, cyclin fold, Cln2 fusion (human); technique: yeast growth competition, sequencing; matrix: yeast; setting: strong parent motif; reference: not given; direction: higher = stronger binding; quantity: normalised enrichment score
Parent: DTL docking peptide (human); PSSMRKICTYFHR
Substitution = R13A; result = 0.893
Substitution = R5A; result = 0.921
Substitution = F11A; result = 0.535
Substitution = Y10A; result = 1.31
Substitution = I7A; result = 0.617
Substitution = M4A; result = 1.03
Substitution = C8A; result = 0.835

Sample 4 — target: NFIL3, bZIP domain (human); technique: DHFR protein complementation; matrix: yeast; reference: wild-type JUN-FOS pair; direction: higher = stronger binding; quantity: binding fitness
Setting: single substitutions, most at no-binding floor
Parent: JUN, bZIP domain (human); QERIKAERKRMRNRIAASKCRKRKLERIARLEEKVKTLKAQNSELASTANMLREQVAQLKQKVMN; partner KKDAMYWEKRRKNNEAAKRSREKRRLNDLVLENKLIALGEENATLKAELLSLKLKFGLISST
Substitution = A49M; result = -1.29 natural log
Substitution = E54H; result = -1.57 natural log
Substitution = A46C; result = -1.34 natural log
Substitution = V35Q; result = -1.51 natural log
Substitution = K36R; result = -1.47 natural log
Substitution = K36P; result = -1.49 natural log
Substitution = E44S; result = -1.54 natural log
Substitution = N42G; result = -1.51 natural log
Substitution = V56S; result = -1.48 natural log
Substitution = M51V; result = -1.34 natural log
Substitution = L52Q; result = -1.5 natural log
Substitution = A29L; result = -1.43 natural log
Substitution = A40P; result = -1.5 natural log
Substitution = M51C; result = -1.49 natural log
Substitution = V56Q; result = -1.49 natural log
Substitution = Q55G; result = -1.51 natural log
Substitution = L52D; result = -1.48 natural log
Substitution = K34F; result = -1.63 natural log
Substitution = S43R; result = -1.45 natural log
